Assay results of several laboratories.
Compare with care: the assays were run in different laboratories. Numbers after ± are the reported error.
UniProt P50391, sequence (whole entry, looked up): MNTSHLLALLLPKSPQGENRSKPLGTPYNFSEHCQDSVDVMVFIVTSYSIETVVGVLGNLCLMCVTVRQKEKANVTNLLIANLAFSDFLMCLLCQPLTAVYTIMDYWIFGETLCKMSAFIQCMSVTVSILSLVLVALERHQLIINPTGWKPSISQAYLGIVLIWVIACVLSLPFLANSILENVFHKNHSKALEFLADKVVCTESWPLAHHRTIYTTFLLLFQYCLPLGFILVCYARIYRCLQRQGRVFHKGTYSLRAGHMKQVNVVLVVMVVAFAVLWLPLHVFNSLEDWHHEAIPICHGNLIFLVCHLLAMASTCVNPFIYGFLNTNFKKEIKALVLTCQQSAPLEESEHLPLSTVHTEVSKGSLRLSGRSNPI
UniProt P35462, sequence (whole entry, looked up): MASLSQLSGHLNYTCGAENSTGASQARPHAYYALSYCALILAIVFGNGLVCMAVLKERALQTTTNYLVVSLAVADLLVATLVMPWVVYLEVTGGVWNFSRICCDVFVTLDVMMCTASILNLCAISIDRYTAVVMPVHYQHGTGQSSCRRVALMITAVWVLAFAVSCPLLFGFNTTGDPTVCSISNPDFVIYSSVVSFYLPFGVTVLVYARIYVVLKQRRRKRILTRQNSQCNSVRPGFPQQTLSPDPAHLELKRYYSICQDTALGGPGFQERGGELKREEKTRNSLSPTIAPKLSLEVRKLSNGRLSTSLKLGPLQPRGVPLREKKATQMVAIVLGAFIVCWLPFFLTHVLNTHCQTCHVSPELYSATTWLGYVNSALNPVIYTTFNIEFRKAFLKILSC
UniProt P33533, sequence (whole entry, looked up): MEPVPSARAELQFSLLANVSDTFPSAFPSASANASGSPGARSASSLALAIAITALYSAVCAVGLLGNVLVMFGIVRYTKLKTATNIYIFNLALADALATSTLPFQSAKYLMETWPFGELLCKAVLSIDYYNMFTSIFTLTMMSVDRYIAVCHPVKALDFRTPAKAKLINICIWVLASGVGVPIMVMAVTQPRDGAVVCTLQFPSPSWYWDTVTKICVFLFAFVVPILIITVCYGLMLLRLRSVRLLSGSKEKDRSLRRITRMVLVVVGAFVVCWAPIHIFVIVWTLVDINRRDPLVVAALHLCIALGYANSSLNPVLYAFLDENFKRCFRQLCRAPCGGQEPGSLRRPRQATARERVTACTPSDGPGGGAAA
UniProt Q9NSD7, sequence (whole entry, looked up): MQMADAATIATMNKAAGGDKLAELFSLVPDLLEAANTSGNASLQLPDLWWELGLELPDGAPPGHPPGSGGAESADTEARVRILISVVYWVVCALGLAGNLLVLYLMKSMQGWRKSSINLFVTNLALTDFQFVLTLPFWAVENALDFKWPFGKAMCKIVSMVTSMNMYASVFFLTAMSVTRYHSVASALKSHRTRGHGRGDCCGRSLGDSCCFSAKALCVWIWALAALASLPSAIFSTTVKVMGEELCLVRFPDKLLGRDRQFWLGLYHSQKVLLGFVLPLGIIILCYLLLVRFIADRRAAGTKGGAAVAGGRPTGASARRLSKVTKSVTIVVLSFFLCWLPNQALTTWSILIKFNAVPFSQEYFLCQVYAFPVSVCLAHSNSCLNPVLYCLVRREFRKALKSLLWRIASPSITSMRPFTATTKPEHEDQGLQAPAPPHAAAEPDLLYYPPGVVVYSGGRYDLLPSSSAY
UniProt P48546, sequence (whole entry, looked up): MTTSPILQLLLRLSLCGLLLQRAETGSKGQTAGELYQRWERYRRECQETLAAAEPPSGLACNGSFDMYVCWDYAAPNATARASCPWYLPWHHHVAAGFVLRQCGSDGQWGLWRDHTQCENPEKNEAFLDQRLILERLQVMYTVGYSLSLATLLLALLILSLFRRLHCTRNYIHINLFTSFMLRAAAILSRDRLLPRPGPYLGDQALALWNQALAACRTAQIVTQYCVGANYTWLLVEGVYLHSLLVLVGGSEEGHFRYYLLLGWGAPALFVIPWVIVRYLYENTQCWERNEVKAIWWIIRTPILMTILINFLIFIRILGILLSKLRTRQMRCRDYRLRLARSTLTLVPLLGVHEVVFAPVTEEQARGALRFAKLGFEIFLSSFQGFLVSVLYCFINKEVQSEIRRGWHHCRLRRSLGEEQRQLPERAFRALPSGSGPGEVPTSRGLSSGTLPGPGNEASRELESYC
UniProt A7T1N0, sequence (whole entry, unmodified, looked up): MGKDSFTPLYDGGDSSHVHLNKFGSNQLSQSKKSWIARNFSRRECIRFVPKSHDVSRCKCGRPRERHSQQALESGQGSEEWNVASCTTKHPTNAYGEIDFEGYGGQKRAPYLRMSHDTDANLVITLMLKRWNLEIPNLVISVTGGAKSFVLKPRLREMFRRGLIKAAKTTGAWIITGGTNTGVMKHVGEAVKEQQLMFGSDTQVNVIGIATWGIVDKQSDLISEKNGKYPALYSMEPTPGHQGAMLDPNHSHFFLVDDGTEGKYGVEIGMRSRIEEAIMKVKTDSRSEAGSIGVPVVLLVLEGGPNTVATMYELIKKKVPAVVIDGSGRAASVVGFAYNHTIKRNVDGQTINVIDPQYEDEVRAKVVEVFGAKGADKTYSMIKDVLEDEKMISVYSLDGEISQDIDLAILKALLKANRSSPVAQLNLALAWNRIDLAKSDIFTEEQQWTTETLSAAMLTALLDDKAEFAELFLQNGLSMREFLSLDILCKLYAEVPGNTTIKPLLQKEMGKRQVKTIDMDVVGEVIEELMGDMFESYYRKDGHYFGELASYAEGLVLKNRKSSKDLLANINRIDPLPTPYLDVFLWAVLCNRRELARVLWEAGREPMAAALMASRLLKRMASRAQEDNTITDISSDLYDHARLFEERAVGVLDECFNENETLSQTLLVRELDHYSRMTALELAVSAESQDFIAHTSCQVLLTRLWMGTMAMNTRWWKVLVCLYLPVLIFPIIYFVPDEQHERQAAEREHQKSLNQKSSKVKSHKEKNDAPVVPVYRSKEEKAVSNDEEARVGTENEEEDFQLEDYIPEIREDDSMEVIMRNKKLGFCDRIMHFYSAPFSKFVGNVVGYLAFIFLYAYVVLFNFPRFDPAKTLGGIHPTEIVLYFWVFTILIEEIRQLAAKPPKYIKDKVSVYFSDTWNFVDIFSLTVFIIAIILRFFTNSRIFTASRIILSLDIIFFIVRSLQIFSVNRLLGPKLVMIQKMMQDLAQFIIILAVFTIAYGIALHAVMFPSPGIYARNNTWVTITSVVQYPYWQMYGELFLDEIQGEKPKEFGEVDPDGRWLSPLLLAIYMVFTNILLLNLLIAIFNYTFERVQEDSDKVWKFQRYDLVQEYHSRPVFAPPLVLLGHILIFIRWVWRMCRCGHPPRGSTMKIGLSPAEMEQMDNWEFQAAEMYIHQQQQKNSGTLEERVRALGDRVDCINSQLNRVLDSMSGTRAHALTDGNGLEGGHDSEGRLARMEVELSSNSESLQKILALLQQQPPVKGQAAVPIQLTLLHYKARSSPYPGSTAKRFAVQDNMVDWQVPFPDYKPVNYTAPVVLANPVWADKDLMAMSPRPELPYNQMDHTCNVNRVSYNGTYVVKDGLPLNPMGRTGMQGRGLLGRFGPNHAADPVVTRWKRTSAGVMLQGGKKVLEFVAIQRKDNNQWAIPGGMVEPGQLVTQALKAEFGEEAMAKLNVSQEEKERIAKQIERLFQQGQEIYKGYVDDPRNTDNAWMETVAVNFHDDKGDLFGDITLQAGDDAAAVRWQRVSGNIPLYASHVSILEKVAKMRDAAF

For `CC(C)C[C@@H]1NC(=O)[C@H](Cc2ccc(O)cc2)NC(=O)[C@H](CC(N)=O)NC(=O)[C@H](CO)NC(=O)[C@@H](NC(=O)[C@@H]2CCCN2C(=O)[C@H](CC(N)=O)NC(=O)[C@H](Cc2ccc(O)cc2)NC(=O)[C@@H](N)CCCCN)CSC1=O`, the EC50 was over 2000 nM (Accessory gene regulator protein C (Staphylococcus epidermidis, UniProt Q8VSX2)).
`NC(N)=NCCC[C@H](NC(=O)[C@H](Cc1ccccc1)NC(=O)[C@@H]1CCCN1C(=O)[C@H](CO)NC(=O)[C@H](Cc1ccccc1)NC(=O)CNC(=O)[C@@H]1CCCN1C(=O)[C@@H]1CCCN1C(=O)[C@@H](N)CCCN=C(N)N)C(=O)O` gave an EC50 of 4 nM (Bradykinin receptor B2 (Bos taurus, UniProt F1MWK0); calcium response, agonist, fura-2; primary bovine aortic endothelial cells).
With `CC[C@H](C)[C@H](NC(=O)[C@H](CO)NC(=O)[C@H](Cc1ccc(O)cc1)NC(=O)[C@H](CC(=O)O)NC(=O)[C@H](CO)NC(=O)[C@@H](NC(=O)[C@H](Cc1ccccc1)NC(=O)[C@@H](NC(=O)CNC(=O)[C@@H]1CCCN1C(=O)[C@H](C)NC(=O)[C@@H](N)Cc1ccc(O)cc1)[C@@H](C)O)[C@@H](C)CC)C(=O)N[C@@H](C)C(=O)N[C@@H](CCSC)C(=O)N[C@@H](CC(=O)O)C(=O)N[C@@H](CCCCN)C(=O)N[C@H](C(=O)N[C@@H](CCCNC(=N)N)C(=O)N[C@@H](CCC(N)=O)C(=O)N[C@@H](CCC(N)=O)C(=O)N[C@@H](CC(=O)O)C(=O)N[C@@H](Cc1ccccc1)C(=O)N[C@H](C(=O)N[C@@H](CC(N)=O)C(=O)N[C@@H](Cc1c[nH]c2ccccc12)C(=O)N[C@@H](CC(C)C)C(=O)N[C@@H](CC(C)C)C(=O)N[C@@H](C)C(=O)N[C@@H](CCC(N)=O)C(=O)N[C@@H](CCCCN)C(=O)NCC(=O)N[C@@H](CCCCN)C(=O)N[C@@H](CCCCN)C(=O)N[C@@H](CC(N)=O)C(=O)N[C@@H](CC(=O)O)C(=O)N[C@@H](Cc1c[nH]c2ccccc12)C(=O)N[C@@H](CCCCN)C(=O)N[C@@H](Cc1c[nH]cn1)C(=O)N[C@@H](CC(N)=O)C(=O)N[C@@H](CC(C)C)C(=O)N[C@H](C(=O)N[C@@H](CCC(N)=O)C(=O)O)[C@@H](C)O)C(C)C)[C@@H](C)CC` the EC50 was 12 nM (Gastric inhibitory polypeptide receptor (GIPR, Homo sapiens, UniProt P48546); cAMP, agonist).
For `CC[C@H](C)[C@H](NC(=O)[C@H](Cc1ccccc1)NC(=O)[C@H](Cc1c[nH]cn1)NC(=O)[C@@H](NC(=O)[C@H](CC(C)C)NC(=O)[C@H](CCCNC(=N)N)NC(=O)[C@@H](NC(=O)[C@@H](N)CCC(=O)O)[C@@H](C)CC)[C@@H](C)O)C(=O)N[C@@H](Cc1ccccc1)C(=O)N[C@@H](Cc1ccccc1)C(=O)N[C@@H](Cc1ccccc1)C(=O)N[C@@H](Cc1ccccc1)C(=O)N[C@@H](Cc1ccccc1)C(=O)N[C@@H](CCCCN)C(=O)N[C@@H](CCCNC(=N)N)C(=O)N[C@@H](CCCNC(=N)N)C(=O)O`, the EC50 was over 10000 nM (histidine kinase ComD (Streptococcus pneumoniae serotype 4, UniProt A0A0H2US84); reporter gene, agonist; Streptococcus pneumoniae, TIGR4 comX::lacZ; 30 min, pH 7.3, 37 °C).
`CC(=O)N[C@@H](CCCNC(=N)N)C(=O)N[C@@H](Cc1ccc(O)cc1)C(=O)N[C@@H](CCCN/C(N)=N/C(=O)NCCCCN)C(=O)N[C@@H](CC(C)C)C(=O)N[C@@H](CCCNC(=N)N)C(=O)N[C@@H](Cc1ccc(O)cc1)C(N)=O` has an EC50 of 144 ± 28 nM (Neuropeptide Y receptor type 4 (NPY4R, Homo sapiens, UniProt P50391); β-arrestin 1 recruitment, agonist; HEK293T).
The EC50 of `C[C@H](N)CCc1ccccc1Cl` is reported as 109 nM (D(3) dopamine receptor (DRD3, Homo sapiens, UniProt P35462); phosphorylation in cells, agonist, western blot).
`Cc1cc(O)cc(C)c1CC(N)C(=O)NC1CCNc2c(F)cc(Cc3ccccc3)cc21` (stereo not shown) gave an EC50 of 97 nM (Delta-type opioid receptor (Oprd1, Rattus norvegicus, UniProt P33533); GTPγS binding, agonist, radiometric; cell membranes).
`CC[C@H](C)[C@@H]1NC(=O)[C@@H](NC(=O)[C@H](CCC(=O)O)NC(=O)[C@H](CCCNC(=N)N)NC(=O)CNC(=O)[C@H](CO)NC(=O)[C@H](CC(C)C)NC(=O)[C@H](CCCNC(=N)N)NC(=O)[C@@H](NC(=O)CNC(=O)[C@H](Cc2ccc(O)cc2)NC(=O)[C@@H]2CCCN2C(=O)[C@H](C)NC(=O)[C@H](C)NC(=O)[C@@H](N)CCCNC(=N)N)C(C)C)CSSC[C@@H](C(=O)N[C@H](C(=O)N[C@@H](Cc2ccccc2)C(=O)N[C@H](C(=O)N[C@@H](CO)C(=O)NCC(=O)NCC(=O)N[C@@H](CO)C(=O)N[C@@H](CCCNC(=N)N)C(=O)N[C@@H](Cc2c[nH]c3ccccc23)C(=O)O)[C@@H](C)O)[C@@H](C)CC)NC(=O)[C@H](C)NC(=O)[C@H](CCCNC(=N)N)NC1=O` has an EC50 of 16500 nM (Relaxin-3 receptor 1 (RXFP3, Homo sapiens, UniProt Q9NSD7); cAMP, agonist).
With `Nc1ncnc2c1ncn2C1OC(COP(=O)(O)OP(=O)(O)OCC2OC(O)C(O)C2O)C(O)C1O` (stereo not shown) the EC50 was 620 ± 50 nM (TRPM2 (Nematostella vectensis, UniProt A7T1N0, R271A); channel activation, agonist, inside-out patch clamp; R271A, 2.5 µM PIP2, added: 125 µM Ca2+).
The EC50 of `CC[C@H](C)[C@@H]1NC(=O)[C@H](Cc2ccccc2)NC(=O)[C@H](CC(N)=O)NC(=O)[C@@H](NC(=O)[C@@H](NC(=O)[C@H](CO)NC(=O)[C@@H](N)Cc2ccc(O)cc2)[C@@H](C)O)CSC(=O)[C@H](CCSC)NC1=O` is reported as 1120 nM (Accessory gene regulator protein C (Staphylococcus aureus, UniProt O33590)).
